# Assay results collected from several papers.
# Protocols differ between the studies behind these lines. Values joined by “and” are separate records of one study, mostly repeats; a detail may differ. ± gives the spread as reported.
# Uncharacterized protein: Uncharacterized protein (Trypanosoma brucei brucei, UniProt Q386Q8)
# Sequence of UniProt Q9NUW8 (whole entry, looked up): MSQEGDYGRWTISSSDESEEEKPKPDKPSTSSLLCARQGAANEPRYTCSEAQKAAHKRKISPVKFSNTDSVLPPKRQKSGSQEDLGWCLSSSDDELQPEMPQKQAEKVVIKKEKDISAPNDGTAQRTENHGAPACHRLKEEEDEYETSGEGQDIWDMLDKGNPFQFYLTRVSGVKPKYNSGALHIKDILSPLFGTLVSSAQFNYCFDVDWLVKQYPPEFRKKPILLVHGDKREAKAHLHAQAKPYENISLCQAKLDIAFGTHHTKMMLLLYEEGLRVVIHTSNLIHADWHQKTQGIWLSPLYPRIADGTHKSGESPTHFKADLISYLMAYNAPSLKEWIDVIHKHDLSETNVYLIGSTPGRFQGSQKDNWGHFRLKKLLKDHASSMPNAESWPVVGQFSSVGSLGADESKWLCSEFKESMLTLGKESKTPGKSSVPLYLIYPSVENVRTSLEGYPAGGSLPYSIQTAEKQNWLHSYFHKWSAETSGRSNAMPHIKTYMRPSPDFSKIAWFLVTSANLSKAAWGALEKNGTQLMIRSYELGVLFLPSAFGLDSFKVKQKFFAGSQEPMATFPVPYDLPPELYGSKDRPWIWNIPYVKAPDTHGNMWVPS
# Sequence of UniProt P10635 (whole entry, looked up): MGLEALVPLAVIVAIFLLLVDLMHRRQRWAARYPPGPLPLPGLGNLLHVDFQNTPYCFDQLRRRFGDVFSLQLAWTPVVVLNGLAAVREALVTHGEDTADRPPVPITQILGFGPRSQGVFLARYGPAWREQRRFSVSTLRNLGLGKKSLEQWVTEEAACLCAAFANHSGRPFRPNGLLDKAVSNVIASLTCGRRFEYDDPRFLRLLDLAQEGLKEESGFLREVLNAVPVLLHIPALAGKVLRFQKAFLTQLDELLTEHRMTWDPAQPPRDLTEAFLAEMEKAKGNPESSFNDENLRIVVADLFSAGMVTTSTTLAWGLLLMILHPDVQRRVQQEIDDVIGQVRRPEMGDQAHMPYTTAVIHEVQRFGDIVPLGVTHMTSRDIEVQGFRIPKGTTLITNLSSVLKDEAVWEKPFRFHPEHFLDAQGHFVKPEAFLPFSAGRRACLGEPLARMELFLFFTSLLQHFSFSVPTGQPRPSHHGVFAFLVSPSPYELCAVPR
# Sequence of UniProt Q9UKP6 (whole entry, looked up): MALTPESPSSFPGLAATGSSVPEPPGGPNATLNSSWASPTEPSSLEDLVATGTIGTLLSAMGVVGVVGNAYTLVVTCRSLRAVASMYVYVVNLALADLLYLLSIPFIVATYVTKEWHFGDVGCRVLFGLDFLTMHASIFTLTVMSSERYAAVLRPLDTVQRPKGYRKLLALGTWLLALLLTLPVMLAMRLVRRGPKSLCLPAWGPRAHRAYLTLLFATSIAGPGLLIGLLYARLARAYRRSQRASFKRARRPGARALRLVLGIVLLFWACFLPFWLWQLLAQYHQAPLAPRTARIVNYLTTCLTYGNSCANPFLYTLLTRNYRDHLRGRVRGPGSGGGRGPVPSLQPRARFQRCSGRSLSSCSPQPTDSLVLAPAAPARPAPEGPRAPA
# Sequence of UniProt P54753 (whole entry, looked up): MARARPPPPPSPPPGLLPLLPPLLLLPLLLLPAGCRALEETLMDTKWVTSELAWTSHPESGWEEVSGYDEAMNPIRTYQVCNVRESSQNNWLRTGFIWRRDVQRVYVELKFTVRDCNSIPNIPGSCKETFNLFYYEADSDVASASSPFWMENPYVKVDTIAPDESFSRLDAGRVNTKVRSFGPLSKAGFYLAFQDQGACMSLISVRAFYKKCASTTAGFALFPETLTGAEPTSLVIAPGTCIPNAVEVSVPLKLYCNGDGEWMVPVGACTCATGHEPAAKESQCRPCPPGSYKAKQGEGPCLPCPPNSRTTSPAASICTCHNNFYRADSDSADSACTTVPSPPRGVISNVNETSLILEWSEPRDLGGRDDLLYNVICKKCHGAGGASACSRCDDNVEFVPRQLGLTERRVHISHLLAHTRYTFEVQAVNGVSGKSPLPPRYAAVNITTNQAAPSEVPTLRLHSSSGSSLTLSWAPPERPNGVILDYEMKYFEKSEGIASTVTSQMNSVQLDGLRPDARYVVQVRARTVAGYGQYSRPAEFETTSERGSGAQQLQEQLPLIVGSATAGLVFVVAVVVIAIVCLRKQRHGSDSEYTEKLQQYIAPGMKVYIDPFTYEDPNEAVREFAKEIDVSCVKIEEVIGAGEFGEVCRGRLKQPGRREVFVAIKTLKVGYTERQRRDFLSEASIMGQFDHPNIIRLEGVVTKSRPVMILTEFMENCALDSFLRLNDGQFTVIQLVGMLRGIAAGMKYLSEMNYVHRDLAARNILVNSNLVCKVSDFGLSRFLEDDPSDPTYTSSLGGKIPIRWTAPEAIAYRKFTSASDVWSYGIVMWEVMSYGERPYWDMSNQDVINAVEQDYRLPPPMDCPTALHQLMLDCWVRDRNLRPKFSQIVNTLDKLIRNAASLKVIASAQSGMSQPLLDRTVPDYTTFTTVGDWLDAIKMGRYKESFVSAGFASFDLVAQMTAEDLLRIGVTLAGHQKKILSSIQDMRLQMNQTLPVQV
Structure (SMILES),tested on,test,test system,conditions,scale,endpoint,result
CC(=O)Oc1ccccc1C(=O)[Se]CC(=O)Nc1cccc(C(F)(F)F)c1,NCI60 CNS subpanel,cell growth,,"10 µM, 48 h, one-dose",,mean growth percent,-55.1%
CC(C)[C@H](NC(=O)[C@@H]1CSSC(C)(C)[C@H](NC(=O)[C@@H](N)CC(=O)O)C(=O)N[C@@H](Cc2ccccc2)C(=O)N[C@H](Cc2c[nH]c3ccccc23)C(=O)N[C@@H](CCCN)C(=O)N[C@@H](Cc2ccc(O)cc2)C(=O)N1)C(=O)O,"UTS2R (Homo sapiens, UniProt Q9UKP6)","beta-arrestin 2 recruitment, agonist, BRET2 biosensor",HEK293,10 min,,EC50,0.0011 ± 0.0009 µM
C=C1CC[C@H](OCCCNC(=O)CCOCCOCCOCCOCCOCCOCCOCCOCCOCCOCCOCCOCCOCCOCCOCCOCCOCCOCCOCCOCCOCCOCCOCCOCCOCCOCCOCCOCCOCCOCCOCCOCCOCCOCCOCCOCCNC(=O)CCN2C(=O)CC(SC[C@H](NC(=O)[C@H](Cc3ccccc3)NC(=O)[C@H](CC(N)=O)NC(=O)[C@H](Cc3c[nH]cn3)NC(=O)[C@@H](NC(=O)[C@H](CC(=O)O)NC(=O)[C@H](CCC(N)=O)NC(=O)[C@H](CC(C)C)NC(=O)[C@H](CCCCN)NC(=O)[C@H](CCCCN)NC(=O)[C@H](CCCNC(=N)N)NC(=O)[C@H](CC(C)C)NC(=O)[C@H](Cc3c[nH]c4ccccc34)NC(=O)[C@H](CCC(=O)O)NC(=O)[C@@H](NC(=O)[C@H](CCCNC(=N)N)NC(=O)[C@H](CCC(=O)O)NC(=O)[C@H](CCSC)NC(=O)[C@H](CO)NC(=O)[C@H](CC(N)=O)NC(=O)[C@H](CC(C)C)NC(=O)[C@H](Cc3c[nH]cn3)NC(=O)[C@H](CCCCN)NC(=O)CNC(=O)[C@H](CC(C)C)NC(=O)[C@H](CC(N)=O)NC(=O)[C@H](Cc3c[nH]cn3)NC(=O)[C@H](CCSC)NC(=O)[C@H](CC(C)C)NC(=O)[C@H](CCC(N)=O)NC(=O)[C@@H](NC(=O)[C@H](CCC(=O)O)NC(=O)[C@H](CO)NC(=O)[C@@H](NC(=O)[C@@H](N)CO)C(C)C)[C@@H](C)CC)C(C)C)C(C)C)C(=O)O)C2=O)C/C1=C/C=C1\CCC[C@]2(C)[C@@H]([C@H](C)CCCC(C)(C)O)CC[C@@H]12 (stereo partly shown),,,"male cynomolgus monkey, plasma","subcutaneous, 0.007 mg/kg, single dose",,AUC(0-t),403 ng·h/mL
C=C(NC(=O)c1csc(-c2nc3c(cc2O)-c2nc(cs2)C(=O)NC(C(C)O)C(=O)NC(=C(C)OC)c2nc(cs2)C(=O)NC2c4nc(cs4)C(=O)NC(COC(=O)c4c5c6c(cccc6n4O)COC(=O)C(OC4CC(C)(O)C(N(C)C)C(C)O4)C2OC5)c2nc-3cs2)n1)C(N)=O (stereo not shown),,,"Sprague-Dawley rat, male, plasma","intravenous infusion, 6 mg/kg single dose",,AUC(0-last),1830 ng·h/mL
O=C(O)c1ccc(Nc2c(-c3ccccc3)nc3ccc(CON=Cc4cccc5c4OCO5)cn23)cc1 (mixture of isomers),"TDP1 (Homo sapiens, UniProt Q9NUW8)","enzyme activity, inhibitor",,"100 µM, unpurified compound",,inhibition,20.1%
Cc1ncsc1-c1ccc([C@H](C)NC(=O)[C@@H]2C[C@@H](O)CN2C(=O)[C@@H](NC(=O)[C@H]2C[C@H](C(=O)N3CCC(c4cc(Nc5cc(C#N)ccn5)nc(N5CCC(F)(F)C5)c4)CC3)C2)C(C)(C)C)cc1,CAL-33 with inducible wild-type LZK,"MS proteomics, item: FILIP1L",,"500 nM, 24 h, together with: doxycycline",relative to: DMSO,protein level log2 fold change,0.0147
O=C(C[Se]C(=O)c1cccnc1Nc1cccc(C(F)(F)F)c1)Nc1cccc(C(F)(F)F)c1,NCI60 melanoma subpanel,"cell growth, inhibitor",,five-dose,,GI50,1.71 µM
C=CC(=O)N1[C@H](c2ccc3c(c2)OCO3)c2[nH]c3ccccc3c2C[C@@H]1C(=O)NC1CC1,rat DRG neurons,,,"0.01372 µM, 48 h, together with: vincristine 40 nM",,mean neuron degeneration,78.4%
COc1ccc2c(c1)c(CC(=O)[Se]CC(=O)Nc1cccc(C(F)(F)F)c1)c(C)n2C(=O)c1ccc(Cl)cc1,NCI60 CNS subpanel,NCI60 five-dose screen,,,,mean TGI,3.45 µM
CCc1n(CC(=O)O[C@@H]2C[C@H](C)CC[C@H]2C(C)C)c2ccccc2[n+]1C,HTS cells (mouse),"gene microarray, item: SLC7A3",,"1 µM, 24 h, unit not given",relative to: untreated,mRNA level,9.51
Cc1ncsc1-c1ccc(C(C)NC(=O)C2CC(O)CN2C(=O)C(NC(=O)CCCCCCCCCCN2CCCC(Nc3ncc(Cl)c(Nc4ccccc4S(=O)(=O)C(C)C)n3)C2)C(C)(C)C)cc1 (stereo not shown),22Rv1,"RNA-seq, item: ZNF844 mRNA",,concentration not given,relative to: DMSO,log2 fold change,-1.54
Nc1ncc(-c2cc(-c3cnn(CC(F)(F)F)c3)ncc2F)nc1C(=O)NC1CNCC(F)C1 (stereo not shown),MTOR,KINOMEscan,,1 µM,relative to: DMSO control,remaining binding,87%
CNC(=O)C1CCCN(C(=O)C2CC3CCC2N3C(=O)[C@@H]2C[C@@H](O)CN2C(=O)NCc2cccc(Cl)c2F)C1 (mixture of isomers),"Cytochrome P450 2D6 (CYP2D6, Homo sapiens, UniProt P10635)","enzyme activity, inhibitor, time-dependent inhibition",,"0.206 µM, preincubated without NADPH",,dextrorphan formation,150 ng/mL
COc1cc(N(C)CCN(C)C)c(NC(=O)/C=C/c2cccc(-c3ccccc3)c2)cc1Nc1nccc(-c2cn(C)c3ccccc23)n1,NCI-H1975,"cell growth or viability, MTT",,"0.5 µM, 72 h",,inhibition,65.5%
COC1CN([C@H]2CC[C@H]([C@@]3(C)Oc4c(Cl)cc(C(=O)NCc5c(SC)cc(C)[nH]c5=O)c(C)c4O3)CC2)C1,,"RNA-seq, item: GRAMD1C mouse homolog","mouse, HT-1376 xenograft, whole blood",dose not given,relative to: vehicle,log2 fold change,0.694
COC(=O)c1cccc(N2Cc3cnn(Cc4ccc(F)cc4)c3C2)c1,HEK293 expressing GluA1 and GluA2,"glutamate excitotoxic cell death, CellTox Green",,together with: glutamate,,IC50,0.361 µM
Cc1cc(/N=N/c2ccc(/N=N/c3ccc(O)c(C(=O)O)c3)cc2)c(N)cc1N,primary mouse articular chondrocytes,"Western blot, item: Phlpp2",,"25 µM, days 0-6 and 0-9",relative to: vehicle,protein level,50 to 70%
C[N+]1(Cc2ccccc2)CCN(CCCN2c3ccccc3Sc3ccc(Cl)cc32)CC1,Uncharacterized protein,"enzyme activity, inhibitor, coupled colorimetric",,together with: E. coli pyrophosphatase coupling,,IC50,92.7 µM
COc1ccc(NC(=O)c2ccc3[nH]c(-c4ccc(N(C)C)cc4)nc3c2)cn1,HCT-116,item: NF-κB luciferase reporter,,"concentration not given, unit not given",relative to: DMSO,reporter activity,2.23 and 1.79 and 3.5
C=CC(=O)Nc1cccc(Cn2ncc3cnc(Nc4cnn(CCOC)c4)nc32)c1,CAMK1D human,"binding, KINOMEscan",,100 nM,lower = stronger binding,percent of control,100%
Cn1ncc2cc(-c3cncc(Cl)c3N3CCC4(CCNC4=O)CC3)ccc21,LS174T,"gene expression, microarray, item: MYL9 mRNA",,"concentration not given, 24 h",relative to: untreated cells,log2 fold change,1.12
O=C(C[Se]C(=O)c1cc2ccccc2o1)Nc1cccc(C(F)(F)F)c1,NCI60 leukaemia subpanel,NCI60 five-dose screen,,,,mean TGI,4.71 µM
CCCCCCc1cccc(C(O)CC(CO)NC(=O)CCCCCCCCCCNC(C)=O)c1 (stereo not shown),HeLa,"CERT activity, HPLC-MS/MS lipidomics",,"1 µM, 24 h, not cell-number normalised",,total ceramide level,54700 pmol/sample and 61700 pmol/sample and 52100 pmol/sample
Cc1nn(-c2cccc(N)c2)c(=O)c2cnc(Nc3ccc(N4CCNCC4)cc3)nc12,"EPHB3 (Homo sapiens, UniProt P54753)","enzyme activity, inhibitor",,,,IC50,> 10 µM
C=CC(=O)Nc1cc(Nc2nccc(-c3c(-c4ccc(-c5cccc6ccccc56)cc4)n(C)c4ccccc34)n2)c(OC)cc1N(C)CCN(C)C,NCI-H1975,"cell growth or viability, MTT",,"0.5 µM, 72 h",,inhibition,58.3%
COc1cc(N2CCN(C(=O)C3CCCN3)CC2)ccc1Nc1ncc(Cl)c(Nc2ccccc2P(C)(C)=O)n1 (stereo not shown),Ba/F3 EML4-ALK,annexin V flow cytometry,,"concentration not given, 3 h",,early apoptotic cells,4.2%
COC(=O)c1ccc(/C=C/C(=O)Nc2cc(Nc3nccc(-c4cn(C)c5ccccc45)n3)c(OC)cc2N(C)CCN(C)C)cc1,NCI-H1975,"cell growth or viability, MTT",,"0.5 µM, 72 h",,inhibition,58%
COc1ccc(NC(=O)c2c(Nc3ccccc3)sc(C(=O)N/N=C/c3ccc(OC)c(OC)c3)c2NC(C)=O)cc1,HepG2,"cell growth or viability, SRB",,"100 µM, 48 h",,viability,40.2%
O=C1CCCC2=C1C(c1c[nH]c3ccccc13)c1cc(Br)ccc1O2 (stereo not shown),3T3-L1 preadipocytes,"adipogenesis, Oil Red O staining",,"IC20, 14 days, single replicate",,lipid content,0.603 OD492 and 0.625 OD492 and 0.615 OD492
COc1ccccc1-c1ccncc1C(=O)Nc1nnc(OCc2ccc(Cl)cc2)s1,DLD-1 parental,,,"0.5 µM, mean of replicates",,colony count,68.5 and 79 and 80.5
COc1ccc2c(c1)OC1=C(C(=O)CCC1)C2c1c[nH]c2ccccc12 (stereo not shown),3T3-L1 preadipocytes,"adipogenesis, Oil Red O staining",,"IC20, 14 days, single replicate",,lipid content,0.496 OD492 and 0.495 OD492 and 0.485 OD492
NC(=O)c1ccc(-c2ccccc2Cl)c2c3c([nH]c12)CC[C@@H](N)C3,A549 parental,cell proliferation,,,,IC50,0.0256 µM
CCNc1cc2c(cc1C)C1(c3cc(C)c(NCC)cc3O2)c2ccccc2C(=O)N1N=Cc1c[c-]c(-c2ccccn2)cc1.Cc1c(C)c(-c2ccc(-c3ccccc3)cc2)[c-](C)c1C.[Cl-].[Ir+3],A549,PI flow cytometry,,"0.25 x IC50, 24 h",,G0/G1 phase cells,54.9 ± 2.01%
C=CC(=O)N1CCCC(n2c(=O)c3ncccc3n(Cc3ccc(Oc4ccccc4)cc3)c2=O)C1 (stereo not shown),Rec1,item: CD69,,concentration not given,relative to: untreated,log2 fold change,0.325
O=[C]=[Mn-2]12(=[C]=O)(=[C]=O)[O]c3cc4c(cc3=[N+]1CCc1ccccc1)[O][Mn-2](=[C]=O)(=[C]=O)(=[C]=O)([N+]=4CCc1ccccc1)[n+]1ccc(cc1)C(=O)Oc1ccccc1OC(=O)c1cc[n+]2cc1,HCT-15,MTT,,"50 µM, 48 h, photolysed compound",,viability reduction,88%
COc1ccc(NC(=O)Nc2cc(C(C)(C)C)on2)cc1OC,Uncharacterized protein,"enzyme activity, inhibitor, coupled colorimetric",,together with: E. coli pyrophosphatase coupling,,IC50,81 µM
COc1cc(N(C)CCN(C)C)c(NC(=O)/C=C/c2ccc(-c3cccc4ccccc34)cc2)cc1Nc1nccc(-c2cn(C)c3ccccc23)n1,NCI-H1975,"cell growth or viability, MTT",,"0.5 µM, 72 h",,inhibition,51.5%
CNS(=O)(=O)Nc1nccc(Cc2c(C)c3ccc(Oc4ncccc4F)cc3oc2=O)c1F,HCC1419,cell viability,,7 days,,IC50,0.066 µM
CC(C)c1ccc(N(C)c2ccc3c(c2)OCC[C@H]3CNc2cnccc2C(=O)O)cc1,CAL-27,cell viability,,7 days,,IC50,≥ 10 µM
CC(C)Cc1ccc(C(C)C(=O)[Se]CC(=O)Nc2cccc(C(F)(F)F)c2)cc1 (stereo not shown),NCI60 CNS subpanel,NCI60 five-dose screen,,,,mean TGI,3.53 µM
CCN(CC)CC(=O)Nc1cccc(-n2cc(-c3ccc4ccc(-c5cn(-c6cccc(NC(=O)CN(CC)CC)c6)nn5)cc4c3)nn2)c1,RCC4,"PCR angiogenesis array, item: FGF1",,"5 x IC50, 4 h, normoxia",relative to: untreated,fold regulation,-1.13
O=C(C[Se]C(=O)C12CC3CC(CC(C3)C1)C2)Nc1cccc(C(F)(F)F)c1,NCI60 melanoma subpanel,"total growth inhibition, inhibitor",,five-dose,,mean TGI,9.04 µM
CN1CCCNC(=O)c2cccc(c2)C(=O)NCCCN(C)CCCNc2cccc3c2C(=O)c2cccc(c2C3=O)NCCC1,SAS,"RNA-Seq, item: PTCD1 mRNA",,"1 µM, 6 h",relative to: untreated cells,log2 fold change,-0.44

# For quick reference, copied from above:
Structure (SMILES),tested on,test,test system,conditions,scale,endpoint,result
C[N+]1(Cc2ccccc2)CCN(CCCN2c3ccccc3Sc3ccc(Cl)cc32)CC1,Uncharacterized protein,"enzyme activity, inhibitor, coupled colorimetric",,together with: E. coli pyrophosphatase coupling,,IC50,92.7 µM
CC(C)Cc1ccc(C(C)C(=O)[Se]CC(=O)Nc2cccc(C(F)(F)F)c2)cc1 (stereo not shown),NCI60 CNS subpanel,NCI60 five-dose screen,,,,mean TGI,3.53 µM
Cn1ncc2cc(-c3cncc(Cl)c3N3CCC4(CCNC4=O)CC3)ccc21,LS174T,"gene expression, microarray, item: MYL9 mRNA",,"concentration not given, 24 h",relative to: untreated cells,log2 fold change,1.12
